# Experimental data collected from several papers.
# Each numbered part is a random draw from the data of one study; scales do not carry over between parts.
# UniProt Q9BVS4, sequence (whole entry, looked up): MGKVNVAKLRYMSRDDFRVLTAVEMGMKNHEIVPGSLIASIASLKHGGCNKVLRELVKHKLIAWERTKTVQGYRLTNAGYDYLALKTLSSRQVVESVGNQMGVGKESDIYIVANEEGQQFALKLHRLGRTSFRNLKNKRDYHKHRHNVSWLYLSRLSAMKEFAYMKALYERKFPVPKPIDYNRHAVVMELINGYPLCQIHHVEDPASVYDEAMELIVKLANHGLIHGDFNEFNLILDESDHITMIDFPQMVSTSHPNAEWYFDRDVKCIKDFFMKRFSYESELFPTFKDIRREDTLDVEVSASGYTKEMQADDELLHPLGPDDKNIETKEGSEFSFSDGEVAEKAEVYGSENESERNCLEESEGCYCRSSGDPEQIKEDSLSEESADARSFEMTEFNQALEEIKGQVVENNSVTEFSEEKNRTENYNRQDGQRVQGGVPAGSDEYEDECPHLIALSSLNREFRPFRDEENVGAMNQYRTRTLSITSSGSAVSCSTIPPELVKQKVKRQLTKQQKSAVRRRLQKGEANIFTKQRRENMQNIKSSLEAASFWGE
# UniProt P42684, sequence (whole entry, looked up): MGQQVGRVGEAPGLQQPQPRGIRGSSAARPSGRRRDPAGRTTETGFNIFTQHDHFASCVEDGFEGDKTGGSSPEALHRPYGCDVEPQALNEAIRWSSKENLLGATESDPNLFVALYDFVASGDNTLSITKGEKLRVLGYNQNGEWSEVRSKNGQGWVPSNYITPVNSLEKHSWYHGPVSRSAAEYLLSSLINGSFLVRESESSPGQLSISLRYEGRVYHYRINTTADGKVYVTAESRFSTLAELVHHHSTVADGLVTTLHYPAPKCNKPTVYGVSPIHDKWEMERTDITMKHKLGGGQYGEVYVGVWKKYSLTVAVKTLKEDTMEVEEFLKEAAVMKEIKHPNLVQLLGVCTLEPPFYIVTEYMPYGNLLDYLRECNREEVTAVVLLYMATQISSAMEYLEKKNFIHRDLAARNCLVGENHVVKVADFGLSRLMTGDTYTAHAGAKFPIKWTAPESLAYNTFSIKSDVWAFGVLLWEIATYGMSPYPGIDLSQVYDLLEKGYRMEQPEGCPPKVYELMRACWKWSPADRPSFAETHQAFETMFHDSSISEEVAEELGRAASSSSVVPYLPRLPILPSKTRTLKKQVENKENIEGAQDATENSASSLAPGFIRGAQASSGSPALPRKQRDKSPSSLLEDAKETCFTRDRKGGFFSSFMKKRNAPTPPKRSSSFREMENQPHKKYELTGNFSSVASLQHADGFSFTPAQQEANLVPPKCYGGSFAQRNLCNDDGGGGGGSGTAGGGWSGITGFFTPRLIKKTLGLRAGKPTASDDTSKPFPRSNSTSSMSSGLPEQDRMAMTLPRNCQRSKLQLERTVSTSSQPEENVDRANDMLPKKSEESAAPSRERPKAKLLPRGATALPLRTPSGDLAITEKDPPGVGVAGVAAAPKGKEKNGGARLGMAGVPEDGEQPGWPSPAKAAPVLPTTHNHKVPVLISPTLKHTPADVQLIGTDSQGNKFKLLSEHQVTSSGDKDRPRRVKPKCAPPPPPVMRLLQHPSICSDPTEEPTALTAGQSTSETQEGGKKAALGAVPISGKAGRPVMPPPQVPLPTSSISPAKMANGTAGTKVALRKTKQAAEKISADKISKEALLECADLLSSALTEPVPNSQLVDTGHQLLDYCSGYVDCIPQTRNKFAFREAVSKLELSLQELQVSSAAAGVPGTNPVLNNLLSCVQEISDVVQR
# UniProt Q7KZI7, sequence (whole entry, looked up): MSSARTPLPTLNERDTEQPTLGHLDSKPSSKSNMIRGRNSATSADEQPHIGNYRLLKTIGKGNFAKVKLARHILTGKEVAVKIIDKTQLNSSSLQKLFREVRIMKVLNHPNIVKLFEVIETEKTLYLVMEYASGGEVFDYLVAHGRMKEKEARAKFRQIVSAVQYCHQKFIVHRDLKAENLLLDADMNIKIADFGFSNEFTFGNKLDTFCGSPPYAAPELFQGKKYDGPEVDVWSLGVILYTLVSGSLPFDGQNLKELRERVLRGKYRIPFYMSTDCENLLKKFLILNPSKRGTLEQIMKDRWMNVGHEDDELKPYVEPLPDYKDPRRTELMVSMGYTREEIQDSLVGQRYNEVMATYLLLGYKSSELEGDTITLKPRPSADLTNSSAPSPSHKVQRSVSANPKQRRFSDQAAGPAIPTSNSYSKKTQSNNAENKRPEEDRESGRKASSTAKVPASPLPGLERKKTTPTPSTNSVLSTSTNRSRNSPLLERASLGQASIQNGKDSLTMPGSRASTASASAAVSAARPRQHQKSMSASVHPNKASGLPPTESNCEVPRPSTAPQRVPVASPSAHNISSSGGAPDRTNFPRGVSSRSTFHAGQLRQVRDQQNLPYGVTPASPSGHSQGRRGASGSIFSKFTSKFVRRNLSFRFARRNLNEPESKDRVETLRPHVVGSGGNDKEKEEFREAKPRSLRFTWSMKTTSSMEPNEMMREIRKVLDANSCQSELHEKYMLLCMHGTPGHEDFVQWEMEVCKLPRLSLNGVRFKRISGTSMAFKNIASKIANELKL
# UniProt P42336, sequence (whole entry, unmodified, looked up): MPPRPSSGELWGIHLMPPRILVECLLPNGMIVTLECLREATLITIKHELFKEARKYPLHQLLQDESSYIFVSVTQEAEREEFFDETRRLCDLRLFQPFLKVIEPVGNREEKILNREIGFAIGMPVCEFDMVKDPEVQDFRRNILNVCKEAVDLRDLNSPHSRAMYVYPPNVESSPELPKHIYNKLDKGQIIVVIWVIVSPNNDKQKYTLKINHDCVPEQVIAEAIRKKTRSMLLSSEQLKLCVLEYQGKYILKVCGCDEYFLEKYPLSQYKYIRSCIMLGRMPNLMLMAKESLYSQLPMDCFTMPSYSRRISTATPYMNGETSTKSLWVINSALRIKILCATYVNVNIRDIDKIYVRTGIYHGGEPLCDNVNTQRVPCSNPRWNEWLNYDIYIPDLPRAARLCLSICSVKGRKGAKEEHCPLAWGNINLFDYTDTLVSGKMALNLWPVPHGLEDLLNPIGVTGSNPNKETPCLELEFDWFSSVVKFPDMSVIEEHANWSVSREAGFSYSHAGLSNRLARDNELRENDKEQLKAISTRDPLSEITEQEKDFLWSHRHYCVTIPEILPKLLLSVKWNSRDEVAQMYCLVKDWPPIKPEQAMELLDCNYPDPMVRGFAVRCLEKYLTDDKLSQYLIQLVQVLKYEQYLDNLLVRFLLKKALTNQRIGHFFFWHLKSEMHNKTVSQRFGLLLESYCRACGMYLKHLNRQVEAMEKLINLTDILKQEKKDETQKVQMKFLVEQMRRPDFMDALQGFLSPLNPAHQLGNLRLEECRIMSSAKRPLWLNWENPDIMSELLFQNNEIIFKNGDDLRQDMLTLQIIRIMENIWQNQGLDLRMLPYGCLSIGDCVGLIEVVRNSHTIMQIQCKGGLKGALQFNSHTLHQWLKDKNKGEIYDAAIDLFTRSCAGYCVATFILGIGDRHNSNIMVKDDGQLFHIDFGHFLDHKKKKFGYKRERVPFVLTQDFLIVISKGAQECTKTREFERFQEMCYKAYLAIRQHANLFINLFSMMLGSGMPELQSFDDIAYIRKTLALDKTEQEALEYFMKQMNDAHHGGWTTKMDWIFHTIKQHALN
# UniProt P45984, sequence (whole entry, looked up): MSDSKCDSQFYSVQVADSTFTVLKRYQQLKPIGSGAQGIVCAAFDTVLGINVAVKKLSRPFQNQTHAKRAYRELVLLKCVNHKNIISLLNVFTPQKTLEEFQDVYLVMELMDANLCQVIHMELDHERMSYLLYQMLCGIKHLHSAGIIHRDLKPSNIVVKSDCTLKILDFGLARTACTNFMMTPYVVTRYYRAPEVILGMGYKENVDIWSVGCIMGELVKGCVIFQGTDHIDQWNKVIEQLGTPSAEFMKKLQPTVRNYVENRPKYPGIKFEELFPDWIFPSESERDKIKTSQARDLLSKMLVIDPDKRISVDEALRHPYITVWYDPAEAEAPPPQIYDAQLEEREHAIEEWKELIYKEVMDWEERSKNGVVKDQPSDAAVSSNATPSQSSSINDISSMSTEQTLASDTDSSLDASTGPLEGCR

# Set 1
# Target: Ribosomal protein S6 kinase beta-1 (RPS6KB1, Homo sapiens, UniProt P23443)
# UniProt P23443, sequence (whole entry, looked up): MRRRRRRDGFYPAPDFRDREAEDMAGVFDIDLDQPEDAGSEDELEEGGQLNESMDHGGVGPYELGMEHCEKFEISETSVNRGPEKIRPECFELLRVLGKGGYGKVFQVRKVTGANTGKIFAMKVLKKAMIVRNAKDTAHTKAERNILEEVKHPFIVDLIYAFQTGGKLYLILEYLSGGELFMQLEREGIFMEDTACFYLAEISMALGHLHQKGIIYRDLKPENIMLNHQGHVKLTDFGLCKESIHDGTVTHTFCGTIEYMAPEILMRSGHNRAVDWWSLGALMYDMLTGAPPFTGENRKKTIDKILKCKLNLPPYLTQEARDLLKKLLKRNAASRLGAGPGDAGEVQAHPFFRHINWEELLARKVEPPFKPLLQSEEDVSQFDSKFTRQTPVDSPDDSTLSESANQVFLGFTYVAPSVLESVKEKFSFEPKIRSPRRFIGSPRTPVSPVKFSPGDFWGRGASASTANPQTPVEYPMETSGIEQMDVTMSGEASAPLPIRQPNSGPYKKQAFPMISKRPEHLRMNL
# Effect on: enzyme activity
# Mode: inhibitor
# Tested at: 0.5 µM
# Baseline: control
Structure (SMILES),remaining activity [%]
CCOc1cc2ncnc(Nc3cccc(Br)c3)c2cc1OCC,95.8
CCC(=O)Nc1ccc2ncnc(Nc3cccc(Br)c3)c2c1,91.2
O=C(Nc1ccc(Cl)cc1)c1ccccc1NCc1ccncc1,92.5
Cc1nc(Nc2ncc(C(=O)Nc3c(C)cccc3Cl)s2)cc(N2CCN(CCO)CC2)n1,102
O=C1NC(=O)/C(=C/c2ccc3nccnc3c2)S1,91.2
COc1cc2ncc(-c3ccccc3)nc2cc1OC,89
CN(C)CCCn1cc(C2=C(c3c[nH]c4ccccc34)C(=O)NC2=O)c2ccccc21,11.6
CC(C)c1nn(-c2c(Cl)cccc2Cl)c2nc(Cc3ccc(OCCO)cc3)[nH]c(=O)c12,94.8
CCN1/C(=C/C(C)=O)Sc2ccc(OC)cc21,95
CC(C)[C@H](CO)Nc1nc(Nc2cccc(Cl)c2)c2ncn(C(C)C)c2n1,90.8
COc1ccc(-c2cnc3c(-c4ccsc4)cnn3c2)cc1,92.1
Cn1cnc2cc3c(Nc4cccc(Br)c4)ncnc3cc21,100
COc1cc2ncnc(Nc3ccc(OCc4ccccc4)cc3)c2cc1OC,95.1
C[S+]([O-])c1ccc(-c2nc(-c3ccncc3)c(-c3ccc(F)cc3)[nH]2)cc1 (stereo not shown),97.4
Cn1cc(/C=C2\C(=O)Nc3ccc(S(N)(=O)=O)cc32)c2ccccc21,44.3
COc1ccc(Cl)cc1NC(=O)Nc1cc(C)nc2ccccc12,96
Cc1ccc(NC(=O)c2ccc(CN3CCN(C)CC3)cc2)cc1Nc1nccc(-c2cccnc2)n1,94.8
O=c1cc(N2CCOCC2)oc2c1ccc1ccccc12,99.3
CC(=O)O/N=C1/C(c2c(O)[nH]c3cc(Br)ccc23)=Nc2ccccc21,95.4
COc1cc2ncnc(N3CCN(C(=O)Nc4ccc(Oc5ccccc5)cc4)CC3)c2cc1OC,89.4
Nc1[nH]nc2nnc(-c3c(-c4ccccc4)nn4ccccc34)cc12,97.7
CS(=O)(=O)CCNCc1ccc(-c2ccc3ncnc(Nc4ccc(OCc5cccc(F)c5)c(Cl)c4)c3c2)o1,95.7

# Set 2
# Target: Calcium/calmodulin-dependent protein kinase type II subunit alpha (CAMK2A, Homo sapiens, UniProt Q9UQM7)
# UniProt Q9UQM7, sequence (whole entry, looked up): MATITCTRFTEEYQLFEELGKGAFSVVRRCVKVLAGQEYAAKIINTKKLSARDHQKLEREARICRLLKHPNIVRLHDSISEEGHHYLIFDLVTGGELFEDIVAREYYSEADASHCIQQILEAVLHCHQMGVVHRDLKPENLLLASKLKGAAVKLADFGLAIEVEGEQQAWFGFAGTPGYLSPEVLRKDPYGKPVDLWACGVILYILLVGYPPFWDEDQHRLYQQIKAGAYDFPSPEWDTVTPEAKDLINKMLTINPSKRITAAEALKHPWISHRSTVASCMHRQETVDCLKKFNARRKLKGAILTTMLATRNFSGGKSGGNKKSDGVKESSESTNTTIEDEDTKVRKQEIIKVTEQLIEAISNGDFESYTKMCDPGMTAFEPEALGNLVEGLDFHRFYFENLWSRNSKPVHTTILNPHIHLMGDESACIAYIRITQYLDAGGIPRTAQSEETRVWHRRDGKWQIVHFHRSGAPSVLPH
# Effect on: enzyme activity
# Mode: inhibitor
# Tested at: 10 µM
SMILES,inhibition
CC(=O)N[C@@H](Cc1ccccc1)C(=O)O,-1%
CC/C=C\C/C=C\C/C=C\CCCCCCCC(=O)OC,-14%
CC(=O)N[C@@H](CS)C(=O)O,-5%
CCCCC(CC)COC(=O)c1ccccc1O (stereo not shown),-3%
O=c1sn(-c2cccc3ccccc23)c(=O)n1Cc1ccccc1,-6%
CC1=CC[C@@]23C[C@@H]1C(C)(C)[C@@H]2CC[C@H]3C,-16%
CC(=O)O[C@H]1C(=O)c2c(O)cc(O)cc2O[C@@H]1c1ccccc1,-3%
Cc1cc(=O)oc2cc(O)c(O)cc12,-8%
COc1ccc2c(c1)O[C@H]1c3ccc(O)cc3OC[C@@H]21,5%
COc1ccc(C(=O)O)c(O)c1,0%
N[C@H]1[C@H](O[C@H]2[C@H](O)[C@@H](N)[C@H](O[C@H]3[C@H](O)[C@@H](N)[C@H](O[C@H]4[C@H](O)[C@@H](N)[C@H](O[C@@H]([C@H](O)[C@@H](N)C=O)[C@H](O)CO)O[C@@H]4CO)O[C@@H]3CO)O[C@@H]2CO)O[C@H](CO)[C@@H](O)[C@@H]1O,68%
COc1ccc([C@@H]2CC(=O)c3c(O)cc(O[C@@H]4O[C@H](CO)[C@@H](O)[C@H](O)[C@H]4O[C@@H]4O[C@@H](C)[C@H](O)[C@@H](O)[C@H]4O)cc3O2)cc1O,0%
CN1C(C(=O)Nc2ccccn2)=C(O)c2sccc2S1(=O)=O,-13%
CC(=O)N(CC(O)CN(C(C)=O)c1c(I)c(C(=O)NC[C@@H](O)CO)c(I)c(C(=O)NC[C@@H](O)CO)c1I)c1c(I)c(C(=O)NC[C@@H](O)CO)c(I)c(C(=O)NC[C@@H](O)CO)c1I,-2%
CCCCCC/C=C\CCCCCCCC(=O)OC,6%
CC(C)[C@H](N)C(=O)OCC(CO)OCn1cnc2c(=O)[nH]c(N)nc21 (stereo partly shown),-16%
Cc1ccc(C(=O)O)cc1C,8%

# Set 3
# Structure (SMILES): Nc1c(C(=O)NCc2ccc(C(=O)NCCCC3CCCCC3)cc2)cnn1-c1ccccc1
# Effect on: cell-free assay
# Technique: competition with immobilised ligand
# Tested at: 0.1 µM
target,remaining binding [%]
"TLK2 (Homo sapiens, UniProt Q86UE8)",100
"PRKD2 (Homo sapiens, UniProt Q9BZL6)",100
"RPS6KB1 (Homo sapiens, UniProt P23443)",100
"MAPK9 (Homo sapiens, UniProt P45984)",100
"PDPK1 (Homo sapiens, UniProt O15530)",100
"RIOK3 (Homo sapiens, UniProt O14730)",100
"RIOK2 (Homo sapiens, UniProt Q9BVS4)",92
"FGFR3 (Homo sapiens, UniProt P22607)",100
"PAK3 (Homo sapiens, UniProt O75914)",100
"Ribosomal protein S6 kinase alpha-1, C-terminal kinase domain (RPS6KA1, Homo sapiens, UniProt Q15418)",92
"MAP3K12 (Homo sapiens, UniProt Q12852)",100
"PKMYT1 (Homo sapiens, UniProt Q99640)",100
"CDK16 (Homo sapiens, UniProt Q00536)",97
"KIT (Homo sapiens, UniProt P10721, A829P)",100
"FGR (Homo sapiens, UniProt P09769)",100
"EGFR (Homo sapiens, UniProt P00533, G719C)",85
"MARK2 (Homo sapiens, UniProt Q7KZI7)",65
"PRKCH (Homo sapiens, UniProt P24723)",98
"TTK (Homo sapiens, UniProt P33981)",100
"ABL2 (Homo sapiens, UniProt P42684)",100
"CDKL2 (Homo sapiens, UniProt Q92772)",93
"STK32C (Homo sapiens, UniProt Q86UX6)",90
"RIPK1 (Homo sapiens, UniProt Q13546)",100
"PIK3CA (Homo sapiens, UniProt P42336, C420R)",100
"MAST1 (Homo sapiens, UniProt Q9Y2H9)",100

# Set 4
# SMILES: COc1cc(C(=O)N2CCC(N3CCN(C)CC3)CC2)ccc1Nc1ncc2c(n1)N(C)c1ccccc1C(=O)N2C
# Technique: KINOMEscan
# Tested at: 10 µM
# Baseline: DMSO control
# Direction: lower = stronger binding
target,binding [%]
GAK,16
CDK2,100
MYLK2,98
BMPR2,100
MARK3,98
STK33,10
EPHA3,100
MAK,72
MAP4K2,100
ARK5,47
FRK,34
AAK1,84
RIOK3,85
HPK1,100
TLK2,99
PRKCD,75
ZAP70,79
PYK2,78

# Repeated from above (set 4):
target,binding [%]
MYLK2,98
ZAP70,79
GAK,16
PYK2,78
ARK5,47
EPHA3,100
AAK1,84
FRK,34
MAP4K2,100
